Measured values from different studies.
± gives the spread as reported.

SMILES | assay | test system | setting | quantity | result
C[C@@H]1OC(=O)NN=C1c1ccc(-c2ccc(F)cc2)c(C(F)(F)F)c1 | phase I trial, measured: Anaemia all grades | human patients | 20 mg loading then 1 mg daily | patients with adverse event | 100%
CCN1[C@@H](C(=O)NC23CCC(C(=O)O)(CC2)CC3)[C@H](c2cccc(Cl)c2F)[C@]2(C(=O)Nc3cc(Cl)ccc32)C12CCCCC2 | – | patients with advanced solid tumours | oral, 100 mg | abdominal pain incidence | 0%
CO[C@H]1C[C@@H]2CC[C@@H](C)[C@@](O)(O2)C(=O)C(=O)N2CCCC[C@H]2C(=O)O[C@H]([C@H](C)C[C@@H]2CC[C@@H](OC(=O)NCCOCCOCCOCCOCCOCCOCCOCCOCCC(=O)N3CCc4cc(Cn5nc(-c6ccc7oc(N)nc7c6)c6c(N)ncnc65)ccc4C3)[C@H](OC)C2)C[C@@H](O)[C@H](C)/C=C(\C)[C@@H](O)[C@@H](OC)C(=O)[C@H](C)C[C@H](C)/C=C/C=C/C=C/1C | – | patients with advanced solid tumours | intravenous, 8 mg weekly, grade 3 or higher | mucositis incidence | 0%
C[C@]1(CO)Cc2ncn(-c3ccc(C#N)c(Cl)c3)c2C(=O)O1 | – | human | 3 mg multiple doses, fasted | subjects with drug-related hyperhidrosis | 0%
NC(=O)[C@H]1CCN(c2ncnc(N)c2F)C[C@@H]1N1CCC[C@@H](Nc2cc(Cl)cc(C(F)(F)F)c2)C1=O | – | B-cell malignancy patients | oral, 246 mg twice daily, dose | grade ≥3 hypocalcaemia | 0%
O=S(=O)(Nc1ccccc1)c1ccc(NC(=S)Nc2ccccc2)cc1 | – | female mouse, blood | oral, 20 mg/kg daily, 14 days | albumin level | 3.08 g/dL
CCCCCCCCCCCCCCCC(=O)N[C@@H](CCC(=O)NCCCC[C@H](NC(=O)[C@H](CC(=O)O)NC(=O)[C@H](CO)NC(=O)[C@@H](NC(=O)[C@H](Cc1ccccc1)NC(=O)[C@@H](NC(=O)CNC(=O)[C@H](CCC(N)=O)NC(=O)[C@H](CO)NC(=O)[C@@H](N)Cc1c[nH]cn1)[C@@H](C)O)[C@@H](C)O)C(=O)N[C@@H](CO)C(=O)N[C@@H](CCC(=O)O)C(=O)N[C@@H](Cc1ccc(O)cc1)C(=O)N[C@@H](CC(C)C)C(=O)N[C@@H](CC(=O)O)C(=O)N[C@@H](CO)C(=O)N[C@@H](CCC(=O)O)C(=O)N[C@@H](CCCNC(=N)N)C(=O)N[C@@H](C)C(=O)N[C@@H](CCCNC(=N)N)C(=O)N[C@@H](CC(=O)O)C(=O)N[C@@H](Cc1ccccc1)C(=O)N[C@H](C(=O)N[C@@H](C)C(=O)N[C@@H](Cc1c[nH]c2ccccc12)C(=O)N[C@@H](CC(C)C)C(=O)N[C@@H](CCC(=O)O)C(=O)N[C@@H](C)C(=O)NCC(=O)NCC(=O)O)C(C)C)C(=O)O | – | human, all renal groups | sc, 100 µg single dose | abdominal distension | 5.4%
CC(C)=CC1C(C(=O)OC(C#N)c2cccc(Oc3ccccc3)c2)C1(C)C (centres unmarked) | measured: CYP2C8 | human, age 6 months | – | enzyme contribution to clearance | 5.84%
CN1CC[C@@H](c2c(O)cc(O)c3c(=O)cc(-c4ccc(C(F)(F)F)cc4Cl)oc23)[C@@H]1CO | measured: Chills | AML | oral, 200 mg, intermittent dosing | patients with adverse event | 20%
CC[C@H](C)[C@H](NC(=O)[C@H](Cc1ccccc1)NC(=O)[C@H](CCC(=O)O)NC(=O)[C@H](CCCNC(=N)N)NC(=O)[C@H](C)NC(=O)[C@H](C)NC(=O)[C@H](CCC(N)=O)NC(=O)[C@H](CCC(=O)O)NC(=O)[C@H](CCC(=O)O)NC(=O)[C@H](CC(C)C)NC(=O)[C@H](Cc1ccc(O)cc1)NC(=O)[C@H](CO)NC(=O)[C@H](CO)NC(=O)[C@@H](NC(=O)[C@H](CC(=O)O)NC(=O)[C@H](CO)NC(=O)[C@@H](NC(=O)[C@H](Cc1ccccc1)NC(=O)[C@@H](NC(=O)CNC(=O)[C@H](CCC(=O)O)NC(=O)[C@H](C)NC(=O)CCc1cnc[nH]1)[C@@H](C)O)[C@@H](C)O)C(C)C)C(=O)N[C@@H](C)C(=O)N[C@@H](Cc1c[nH]c2ccccc12)C(=O)N[C@@H](CC(C)C)C(=O)N[C@H](C(=O)N[C@@H](CCCNC(=N)N)C(=O)NCC(=O)N[C@@H](CCCNC(=N)N)C(=O)N[C@@H](CCCCNC(=O)COCCOCCNC(=O)COCCOCCNC(=O)CC[C@H](NC(=O)CCCCCCCCCCCCCCCCC(=O)O)C(=O)O)C(=O)NCC(=O)NCC(=O)N[C@@H](CO)C(=O)N[C@@H](CCSC)C(=O)N[C@H](C(=O)N[C@@H](CCCCNc1c(NCCCCCN(O)C(=O)CCC(=O)NCCCCCN(O)C(=O)CCC(=O)NCCCCCN(O)C(C)=O)c(=O)c1=O)C(=O)O)C(C)C)C(C)C [zirconium-89 labelled] | ex vivo gamma counting | male Sprague-Dawley rats, lung | intravenous, 1 nmol, 72 h, mean of 3 animals | tissue uptake | 0.77 %ID/g
O=C1Nc2cc3[nH]nc(-c4ccncc4)c3cc2CN1Cc1ccccc1 | CTCAE v4.03 | human, relapsed or refractory advanced solid tumours | intravenous, 3.6 mg/kg | patients with subretinal fluid | 33%
COc1cc2c(Oc3ccc4[nH]c(C)cc4c3F)ccnc2cc1OCC1(N)CC1 | – | paediatric refractory sarcoma patients | 12 mg | Fever incidence | 9.1%
CC(C)C[C@H](NC(=O)[C@H](CCCCN)NC(=O)OCC1c2ccccc2-c2ccccc21)C(=O)N[C@H](C(=O)N[C@@H](Cc1ccccc1)C(=O)N[C@@H](Cc1ccccc1)C(=O)N[C@@H](CCCCN)C(=O)NCC(=O)N[C@@H](Cc1ccccc1)C(=O)N[C@@H](C)C(=O)N[C@@H](Cc1c[nH]c2ccccc12)C(=O)N[C@@H](CC(N)=O)C(=O)N[C@H](C(=O)N[C@H]1CSSC[C@@H](C(=O)N[C@@H](Cc2c[nH]cn2)C(=O)N[C@@H](CCCNC(=N)N)C(=O)N[C@@H](CCCNC(=N)N)C(=O)N[C@@H](C)C(=O)N[C@@H](CC(N)=O)C(N)=O)NC(=O)[C@H](C(C)C)NC(=O)[C@H](CCCNC(=N)N)NC(=O)[C@H](C(C)C)NC(=O)CNC(=O)[C@H](CC(N)=O)NC(=O)[C@H](CCCNC(=N)N)NC(=O)[C@H](Cc2ccc(O)cc2)NC(=O)[C@H](C(C)C)NC1=O)C(C)C)C(C)C | – | ICR mice, serum | intraperitoneal, 5 mg/kg, day 5 | AST | 25.1 ± 0.55 IU/L
CC(C)CC(=O)OC[C@H]1O[C@@](C#N)(c2ccc3c(N)ncnn23)[C@H](O)[C@@H]1O | – | beagle dog both sexes | oral, cardiovascular safety pharmacology | NOAEL | 100 mg/kg/day

Repeated from above:
SMILES | assay | test system | setting | quantity | result
C[C@@H]1OC(=O)NN=C1c1ccc(-c2ccc(F)cc2)c(C(F)(F)F)c1 | phase I trial, measured: Anaemia all grades | human patients | 20 mg loading then 1 mg daily | patients with adverse event | 100%
